Results collected from several papers.
Each numbered part is a random draw from the data of one study; scales do not carry over between parts. Values joined by “and” are separate records of one study, mostly repeats; a detail may differ.

Set 1
Organism: Sarcocystis neurona
Effect on: parasite growth
Concentration: concentration not given
Structure (SMILES) | inhibition
C[N+]1(CCC(C(N)=O)(c2ccccc2)c2ccccc2)CCCCC1.[Br-] | -16.1%
COc1cc(N)c(Cl)cc1C(=O)NC1CN2CCC1CC2.Cl (centres unmarked) | -13%
Cl.O.Oc1ccc2c3c1O[C@H]1c4[nH]c5ccccc5c4C[C@@]4(O)[C@@H](C2)N(CC2CC2)CC[C@]314 | -7.6%
C=C(C)CN1CC[C@]23c4c5ccc(O)c4O[C@H]2c2[nH]c4ccccc4c2C[C@@]3(O)C1C5.Cl.O | -3.4%
COC(=O)N1CCN(C(=O)Cc2ccc(Cl)c(Cl)c2)C(CN2CCCC2)C1.O=C(O)/C=C/C(=O)O (centres unmarked) | -9.1%
CN1CC[C@@H](c2ccc(F)cc2)[C@H](COc2ccc3c(c2)OCO3)C1 | -0.2%
COc1ccc(CCN)cc1OC | -7.7%
CCCCCCCCCOc1ccc2[nH]cc(CCN)c2c1 | -9.7%
Cl.OC1CCCCC1N1CCC(c2ccccc2)CC1 (racemic) | -13.4%
CCN(CC)CCOC(=O)C(O)(c1ccccc1)c1ccccc1.Cl | -4.8%
C[N+]1(C)CCN(c2ccccc2)CC1.[I-] | -6.3%
CC(NC(C)(C)C)C(=O)c1cccc(Cl)c1.Cl (centres unmarked) | -15%
COc1ccc2[nH]cc(C3=CCNCC3)c2c1.O=C(O)CCC(=O)O | -13.8%

Set 2
Compound: c1ccc(Oc2ccc(Nc3c4c(nc5ccccc35)CCC4)cc2)cc1
Organism: Leishmania donovani
Effect on: parasite growth
test system | setting | inhibition
 | 80 µM, intracellular, amastigote | 100%
DD8 amphotericin B-resistant, promastigotes | 66.66 µM | 99% and 100%
 | 16.66 µM, promastigote | 75%
DD8 amphotericin B-resistant, intracellular amastigotes | 40 µM | 100%
 | 2 µM, intracellular, amastigote | 7%
DD8 amphotericin B-resistant, promastigotes | 0.016 µM | 2% and 5%
DD8 amphotericin B-resistant, intracellular amastigotes | 0.04 µM | 2% and 1% and 4%

Set 3
Cell line: HEK-293T-ACE2-TMPRSS2
Technique: cell count
Concentration: concentration not given
Compound | viability
Cc1cnc(-c2ccc(C(C)N3CCOCC3)cc2)c(Cl)c1 (centres unmarked) | 82%
Cc1nn(C)c(C)c1CNC(=O)c1ccc(-c2nc(CN3CCN(c4ccccc4)CC3)c(C)o2)cc1 | 76%
COc1c(F)c(F)c(CN2CC=C(c3cnn(C)c3)CC2)c(F)c1F | 88%
Cc1cc(C)cc(NC(=O)N2c3ccccc3CC2c2noc(C3CCOCC3)n2)c1 (centres unmarked) | 73%
O=C(Cn1ncc(Cl)c(Cl)c1=O)NCCC1=CCCCC1 | 73%
CC(=O)OC(C(=O)Oc1ccc2c(c1)C(C)=CC(C)(C)N2)c1ccccc1 (centres unmarked) | 77%
CC(C)c1cc(C(=O)NCc2ccccc2CN2CCCC2=O)n(C)n1 | 71%

Mixed results
Host: human
Sample: microsomes or S9
Concentration: 2 µM
Time: 0.5 h
Compound | remaining compound [%]
NC1=NC(c2ccccc2)(c2ccccc2)C(=O)N1 | 94.8
OC(c1ccccc1)(c1ccccc1)C1CCCN1 (centres unmarked) | 78.9

Some of these lines once more (set 3):
Compound | viability
COc1c(F)c(F)c(CN2CC=C(c3cnn(C)c3)CC2)c(F)c1F | 88%
Cc1cnc(-c2ccc(C(C)N3CCOCC3)cc2)c(Cl)c1 (centres unmarked) | 82%
Cc1cc(C)cc(NC(=O)N2c3ccccc3CC2c2noc(C3CCOCC3)n2)c1 (centres unmarked) | 73%
